Assay results collected from several papers.
Compare with care: the assays were run in different laboratories.
Organism: Escherichia coli

Compound = CC(C)C[C@@H]1NC(=O)[C@@H](CC(C)C)NC(=O)[C@H](CCN)NC(=O)[C@@H](NC(=O)[C@H](CCN)NC(=O)[C@@H](NC(=O)CN=[N+]=[N-])[C@@H](C)O)CCNC(=O)[C@H]([C@@H](C)O)NC(=O)[C@H](CCN)NC(=O)[C@H](CCN)NC1=O; test = broth microdilution; system = ATCC 35218, cation-adjusted Mueller-Hinton broth; setting = 18 to 20 h, 37 °C, 0.002% polysorbate 80; MIC = 64 µg/mL
Compound = CC[C@H]1OC(=O)[C@H](C)[C@@H](OC(=O)c2ccc(N)cc2)[C@H](C)[C@@H](O[C@@H]2O[C@H](C)C[C@H](N(C)C)[C@H]2O)[C@](C)(OC)C[C@@H](C)C(=O)[C@H](C)[C@@H](O)[C@]1(C)O; system = lpxC; MIC = > 32 µg/mL
Compound = C#CCNC(=O)[C@H]1NC(=O)[C@H]2NC(=O)[C@H](NC(=O)[C@@H]3NC(=O)[C@H](CC(N)=O)NC(=O)[C@H](NC(=O)[C@@H](CC(C)C)NC)[C@H](O)c4ccc(c(Cl)c4)Oc4cc3cc(c4O[C@@H]3O[C@H](CO)[C@@H](O)[C@H](O)[C@H]3O[C@H]3C[C@](C)(N)[C@H](O)[C@H](C)O3)Oc3ccc(cc3Cl)[C@H]2O)c2ccc(O)c(c2)-c2c(O)cc(O)cc21; test = broth microdilution; system = ATCC 25922; setting = 18 to 20 h; MIC = 64 µg/mL
Compound = CCCCCCCCCCn1cc[n+](CCCCCCCCCCOc2cc(OCCCCCCCCCC[n+]3ccn(CCCCCCCCCC)c3)cc(OCCCCCCCCCC[n+]3ccn(CCCCCCCCCC)c3)c2)c1.[Br-].[Br-].[Br-]; system = MC4100; MIC = 32 µM
Compound = COc1ccc2ccc(O)c(/C=N/[C@H]3CCCC[C@H]3/N=C/c3cc(C(C)(C)C)ccc3O)c2c1; test = microbial growth, broth dilution; MIC = > 40 µM
Compound = CC[C@H](C)[C@H](NC(=O)[C@@H](CCCNC(=N)N)NC(=O)[C@H](CCCNC(=N)N)NC(=O)[C@@H]1CCCN1C(=O)[C@@H]1CCCN1C(=O)[C@H](CCCNC(=N)N)NC(=O)[C@@H]1CCCN1C(=O)[C@H](CCCNC(=N)N)NC(=O)[C@@H]1CCCN1C(=O)[C@H](CC(C)C)NC(=O)[C@H](Cc1ccc(O)cc1)NC(=O)[C@@H]1CCCN1C(=O)[C@H](CCCCN)NC(=O)[C@H](CCCCN)NC(=O)[C@H](CC(=O)O)NC(=O)[C@@H](N)C(C)C)C(=O)N[C@@H](Cc1ccc(O)cc1)C(=O)N[C@@H](CC(N)=O)C(=O)N[C@H](CCCNC(=N)N)C(N)=O; test = broth microdilution; system = ATCC 25922; setting = 18 h, 37 °C, 25% MHB2; MIC = 16 µg/mL
Compound = CCCCCCCCn1cc[n+](CCCCCCOc2cc(OCCCCCC[n+]3ccn(CCCCCCCC)c3)cc(OCCCCCC[n+]3ccn(CCCCCCCC)c3)c2)c1.[Br-].[Br-].[Br-]; system = MC4100; MIC = 1 µM
Compound = C[C@H](CS)C(=O)Nc1cccc(-c2nn[nH]n2)c1; test = broth microdilution; system = DH5α pET28-lacUV5 control; setting = 50 µM; MIC = > 64 µg/mL
Compound = CCCC(=O)Oc1c(C)c(OC)c2c(/C=C/c3ccccc3)c(CC)c(=O)oc2c1C; test = microbial growth, broth dilution; system = ATCC25922; MIC = 5000 µg/mL
Compound = O=[N+]([O-])c1c(Br)c(Cl)c2cccnc2c1O; test = microbial growth, broth dilution; system = ATCC25922; MIC = 2 µg/mL
Compound = CCOc1c(NC(=O)c2ccc(NC(=O)c3ccc(NC(=O)[C@H](Cc4c[nH]nn4)NC(=O)c4ccc(NC(=O)/C(C)=C/c5ccc(O)cc5)cc4)cc3)c(OC)c2O)ccc(C(=O)O)c1O; test = broth microdilution; system = ciprofloxacin-sensitive; MIC = 0.031 µg/mL
Compound = COC(=O)CC(C)c1n[nH]c2nc(N)[nH]c(=O)c2c1=O (stereo not shown); test = microbial growth, broth dilution; system = BW25113; setting = 18 h; MIC = > 100 µg/mL
Compound = CCCCCCCCCCCCCCCCCCn1cc(CN(CCC(=O)NCCN(CCC(=O)NCCN(CCC(=O)NCCN(C)C)CCC(=O)NCCN(C)C)CCC(=O)NCCN(CCC(=O)NCCN(C)C)CCC(=O)NCCN(C)C)CCC(=O)NCCN(CCC(=O)NCCN(CCC(=O)NCCN(C)C)CCC(=O)NCCN(C)C)CCC(=O)NCCN(CCC(=O)NCCN(C)C)CCC(=O)NCCN(C)C)nn1; test = microbial growth, broth dilution; system = ATCC25922; MIC = 6 µg/mL
Compound = COc1cc(C(=O)O)ccc1NC(=O)c1ccc(NC(=O)c2ccc(NC(=O)[C@H](Cc3c[nH]nn3)NC(=O)c3ccc(NC(=O)/C(C)=C/c4ccc(O)cc4)cc3)cc2)c(OC)c1O; test = broth microdilution; system = BW25113; MIC = 0.125 µg/mL
Compound = Nc1nc2[nH]nc(CC(=O)O)c(=O)c2c(=O)[nH]1; test = microbial growth, broth dilution; system = BW25113; setting = 18 h; MIC = > 100 µg/mL
Compound = COc1c(NC(=O)c2ccc(NC(=O)c3ccc(NC(=O)[C@H](Cc4c[nH]nn4)NC(=O)c4ccc(NC(=O)/C(C)=C/c5ccc(O)cc5)cc4)cc3)cc2O)ccc(C(=O)O)c1O; test = broth microdilution; system = ciprofloxacin-sensitive; MIC = 0.5 µg/mL
Compound = CCCCCCCCCCCC[N+](C)(C)CCCCCCCCCCOc1cc(OCCCCCCCCCC[N+](C)(C)CCCCCCCCCCCC)cc(OCCCCCCCCCC[N+](C)(C)CCCCCCCCCCCC)c1.[Br-].[Br-].[Br-]; system = MC4100; MIC = 63 µM
Compound = CC[C@H]1OC(=O)[C@H](C)[C@@H](OC(=O)Cc2c(F)cccc2F)[C@H](C)[C@@H](O[C@@H]2O[C@H](C)C[C@H](N(C)C)[C@H]2O)[C@](C)(OC)C[C@@H](C)C(=O)[C@H](C)[C@@H](O)[C@]1(C)O; system = DSM 30083; setting = together with: colistin sulfate at 0.5 x MIC; MIC = 2 µM
Compound = CC[C@H](C)[C@H](N)C(=O)N1CCC[C@H]1C(=O)N[C@@H](Cc1ccccc1)C(=O)N[C@@H](Cc1c[nH]c2ccccc12)C(=O)N[C@@H](CCCNC(=N)N)C(=O)N[C@@H](Cc1c[nH]c2ccccc12)C(=O)N[C@@H](CC(C)C)C(=O)N[C@@H](CC(C)C)C(=O)N[C@@H](CCC(N)=O)C(=O)N[C@@H](CCCNC(=N)N)C(=O)N[C@@H](CC(C)C)C(=O)N1CCC[C@H]1C(=O)NCC(=O)O; test = broth microdilution; system = ATCC 25922; setting = 16 h, 37 °C, cation-adjusted Mueller-Hinton broth; MIC = 128 µg/mL
Compound = CC[C@H]1OC(=O)[C@H](C)[C@@H](OC(=O)Cc2ccc(N)cc2)[C@H](C)[C@@H](O[C@@H]2O[C@H](C)C[C@H](N(C)C)[C@H]2O)[C@](C)(OC)C[C@@H](C)C(=O)[C@H](C)[C@@H](O)[C@]1(C)O; system = lpxC; MIC = > 32 µg/mL
Compound = CCC(CC)c1cc(CCN2CCCN(C(=O)OC(C)(C)C)CC2)nc(-c2ccccn2)n1; test = microbial growth, broth dilution; system = ATCC25922; MIC = > 64 µg/mL
Compound = COc1ccc2ccc(O)c(/C=N/[C@H]3CCCC[C@H]3/N=C/c3ccc(F)cc3O)c2c1; test = microbial growth, broth dilution; setting = clinical isolate; MIC = > 40 µM
Compound = COc1ccc(/N=N/C(=S)N2CCOCC2)cc1; test = microbial growth, broth dilution; system = ATCC 8739, ATCC8739; setting = 24 h; MIC = > 50 µM
Compound = CC[C@H]1OC(=O)[C@H](C)[C@@H](OC(=O)Cc2cccc([N+](=O)[O-])c2)[C@H](C)[C@@H](O[C@@H]2O[C@H](C)C[C@H](N(C)C)[C@H]2O)[C@](C)(OC)C[C@@H](C)C(=O)[C@H](C)[C@@H](O)[C@]1(C)O; test = microbial growth; system = ATCC25922; MIC = > 32 µg/mL
Compound = COc1c(NC(=O)c2ccc(NC(=O)[C@H](Cc3c[nH]nn3)NC(=O)c3ccc(NC(=O)/C(C)=C/c4ccc(O)cc4)cc3)cc2)ccc(C(=O)Nc2ccc(C(=O)O)c(O)c2)c1O; test = broth microdilution; system = ciprofloxacin-resistant; MIC = 0.5 µg/mL
Compound = CC1(C)[C@H](NC(=O)/C(=N\OCC(=O)N2CCC[C@@H]2C(=O)O)c2nsc(N)n2)C(=O)N1OS(=O)(=O)O; test = agar dilution; system = 16-1, ESBL-producing; MIC = 1 µg/mL
Compound = COc1c(NC(=O)c2ccc(NC(=O)[C@H](Cc3c[nH]nn3)NC(=O)c3ccc(NC(=O)/C(C)=C/c4ccc(O)cc4)cc3)cc2)ccc(C(=O)Nc2ccc(C(=O)O)cc2)c1O; test = broth microdilution; system = DSM 1116; MIC = 0.25 µg/mL
Compound = C#CCO/N=C(\C(=O)N[C@@H]1C(=O)N(OS(=O)(=O)O)C1(C)C)c1csc(N)n1; test = agar dilution; system = 16-1, ESBL-producing; MIC = 0.25 µg/mL

Repeated from above:
Compound = CCCCCCCCn1cc[n+](CCCCCCOc2cc(OCCCCCC[n+]3ccn(CCCCCCCC)c3)cc(OCCCCCC[n+]3ccn(CCCCCCCC)c3)c2)c1.[Br-].[Br-].[Br-]; system = MC4100; MIC = 1 µM
Compound = C[C@H](CS)C(=O)Nc1cccc(-c2nn[nH]n2)c1; test = broth microdilution; system = DH5α pET28-lacUV5 control; setting = 50 µM; MIC = > 64 µg/mL
Compound = CCCC(=O)Oc1c(C)c(OC)c2c(/C=C/c3ccccc3)c(CC)c(=O)oc2c1C; test = microbial growth, broth dilution; system = ATCC25922; MIC = 5000 µg/mL
Compound = O=[N+]([O-])c1c(Br)c(Cl)c2cccnc2c1O; test = microbial growth, broth dilution; system = ATCC25922; MIC = 2 µg/mL
